# Experimental data collected from several papers.
# A part holds a random share of what one study measured. Changes are numbered by the printed parent chain.

# Block 1
# Target: Histone acetyltransferase KAT6A, both winged helices, GST fusion (KAT6A, Homo sapiens, UniProt Q92794, residues 1-181)
# Technique: protein binding microarray
# Form: double-stranded DNA, one strand shown
# Matrix: in vitro
# Tested at: not given
# Notes: 8-mer, flanks averaged, mean of 2 arrays, mostly near background
# Relative to: not given
# Reading: higher = stronger binding
# Residues (chain): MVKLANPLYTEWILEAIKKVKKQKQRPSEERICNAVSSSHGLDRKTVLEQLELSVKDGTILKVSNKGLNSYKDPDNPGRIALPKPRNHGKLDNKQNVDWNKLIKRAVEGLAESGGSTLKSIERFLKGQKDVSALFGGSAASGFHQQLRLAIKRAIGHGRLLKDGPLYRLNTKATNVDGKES
Sequence,E-score
GTCTAAGA,-0.0819
ACGGTATG,0.0632
AGCCCGCG,0.26
CATTCACC,-0.0189
GCCCGGGA,0.247
GGTCTGAA,-0.0289
ACTGACGC,0.134
ACCACGCA,-0.0464
TCCATACA,-0.205
CGATGGCC,0.0977
AACTCGAG,-0.155
ATTTCTCG,0.0362
AGCCATCG,-0.099
ATGTCTAG,0.0883
ACGCATCT,0.00385
CGGATGTA,0.201
TCAATTGA,-0.0984

# Block 2
# Target: Interferon regulatory factor 3, full length, phosphomimetic (IRF3, Homo sapiens, UniProt Q14653, residues 1-427, S386D/S396D/S398D/S402D/T404D/S405D)
# Technique: protein-binding microarray
# Form: double-stranded DNA, one strand shown
# Matrix: in vitro
# Tested at: 2540 nM top
# Notes: 60-bp whole probe
# With: salmon DNA 0.4 mg/ml
# Relative to: random background probes
# Reading: higher = stronger binding
# Constant ends, left off below: GCCTAGCAC … GTCTTGATTCGCTTGACGCTGCTG
# Residues (chain): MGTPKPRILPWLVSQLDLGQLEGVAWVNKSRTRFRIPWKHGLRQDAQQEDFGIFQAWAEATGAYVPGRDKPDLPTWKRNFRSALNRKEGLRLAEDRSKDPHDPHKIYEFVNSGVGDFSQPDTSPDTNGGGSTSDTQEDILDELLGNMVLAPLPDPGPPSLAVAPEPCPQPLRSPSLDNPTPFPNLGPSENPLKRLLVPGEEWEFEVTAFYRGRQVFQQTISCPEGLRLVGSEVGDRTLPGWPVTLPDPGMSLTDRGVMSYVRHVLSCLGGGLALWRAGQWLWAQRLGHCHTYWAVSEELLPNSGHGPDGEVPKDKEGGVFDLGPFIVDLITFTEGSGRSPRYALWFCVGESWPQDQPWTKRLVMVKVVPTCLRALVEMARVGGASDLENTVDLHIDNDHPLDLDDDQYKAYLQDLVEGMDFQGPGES
Sequence,fitted relative affinity [z-score]
GACGATTTCAGTTTCTAGACGTGCTAG,3.87
AAATGATTGGTTGAACATGAGTGCTAG,-0.249
TTAGGTCTCGGTCTAGGTTAGTGCTAG,0.293
TTAGGTTCCGGTTTTGGTTAGTGCTAG,5.03
GACGATATCGGGTATCGAGCCGTGCTA,-0.135
TTTAGGTCCCTTTTCATGCTGTGCTAG,3.52
TGTCCTTTTCTTTACTGATGGTGCTAG,5.75
GACGGTATCATTCTCCTGACGTGCTAG,4.45
GACGATCTCAGTAGCGAGACGTGCTAG,0.338
GAGATTTTCATTATTGCTTCGTGCTAG,1.41
TTCGGTCTCCTACTGCTTTAGTGCTAG,1.84
TCAAATTTATAAATAAAACTGTGCTAG,0.00663
GCCGGTCTCGGTTTCGGGACGTGCTAG,4.77
TTAGGACTGGACACCGGGTTAGTGCTA,-0.719

# Block 3
# Target: CCNE1, cyclin fold, Cln2 fusion (human)
# Technique: yeast growth competition, sequencing
# Matrix: yeast
# Notes: weak parent motif
# Relative to: not given
# Reading: higher = stronger binding
# Parent: MICAL3 docking peptide (human); LQLRRQLSFSEDS
Change,normalised enrichment score
LQLRRQLSFSMDS [E11M],0.784
LQLRRNLSFSEDS [Q6N],0.255
LQLRRQLSFTEDS [S10T],0.796
LQLRAQLSFSEDS [R5A],0.0481
LQLRRQLSFHEDS [S10H],0.466
LKLRRQLSFSEDS [Q2K],0.949
LQPRRQLSFSEDS [L3P],3.39
LQLRRQRSFSEDS [L7R],0.0117
LQLYRQLSFSEDS [R4Y],0.167
LQARRQLSFSEDS [L3A],5.37
LQLRRQLSFSEPS [D12P],0.979
LQLRRPLSFSEDS [Q6P],0.176
LFLRRQLSFSEDS [Q2F],0.936
LQLRRQLSFSEWS [D12W],0.995
LQLCRQLSFSEDS [R4C],0.831

# Single results of other studies
Molecule,target,assay,test system,conditions,how to read,measurement,value
"PhoQ, residues 284 288 289 292 302 303 SLANKL","PhoP, residues 12 14 15 18 19 HHYTI (Escherichia coli, UniProt P23836)","Sort-seq, refers to: YFP reporter",E. coli,"PhoQ-PhoP variant library, with: 10 µM Mg2+","relative to: high Mg2+ state, higher = stronger signaling",fold induction,13.5

# Excerpt of the above (block 3):
Change,normalised enrichment score
LQARRQLSFSEDS [L3A],5.37
LQLRRQLSFSEPS [D12P],0.979
LQLRRPLSFSEDS [Q6P],0.176
LFLRRQLSFSEDS [Q2F],0.936
LQLRRQLSFSEWS [D12W],0.995
